Published values gathered from unrelated publications.
Each line is one published result; not all experiments were run side by side. ± marks the error that the study gave. ≈ marks a conversion by molar mass, not a printed value.

SMILES = CCCC(=O)OCSc1ccccc1C(=O)NCCC(N)=O; system = Sprague-Dawley rat, male, plasma; setting = oral, 1000 mg/kg; endpoint = Tmax; value = 1.1 ± 1.7 h
SMILES = O[C@H]1CCCN[C@@H]1CCCn1cnc2c(Cl)c(Cl)ccc21; system = human, plasma; setting = oral, 500 mg, single dose, healthy volunteers; endpoint = Vd/F; value = 2410 L
SMILES = CCCCCOc1ccc(-c2cc(-c3ccc(C(=O)N[C@H]4C[C@@H](O)[C@@H](O)NC(=O)[C@@H]5[C@@H](O)[C@@H](C)CN5C(=O)[C@H]([C@H](O)CC(N)=O)NC(=O)[C@H]([C@H](O)[C@@H](O)c5ccc(O)c(OS(=O)(=O)O)c5)NC(=O)[C@@H]5C[C@@H](O)CN5C(=O)[C@H]([C@@H](C)O)NC4=O)cc3)no2)cc1; system = human paediatric patients 2 to 5 years, plasma; setting = intravenous, 4.5 mg/kg once daily, day 7, geometric mean; endpoint = Tmax; value = 1.2 h
SMILES = CN[C@@](C)(C[18F])C(=O)O; system = SCID mouse A549 xenograft, brain; setting = 60 min, post injection; endpoint = tissue uptake; value = 0.4 ± 0.04 %ID/g
SMILES = COc1ccc(C(CN(C)C)C2(O)CCCCC2)cc1 (stereo not drawn); system = human, plasma; setting = oral, 225 mg/day, day 15; endpoint = AUCtau; value = 2900 ng·h/mL
SMILES = CCCCCOc1ccc(-c2ccc(-c3ccc(C(=O)N[C@H]4C[C@@H](O)[C@@H](OCC[N+](C)(C)C)NC(=O)[C@@H]5[C@@H](O)[C@@H](C)CN5C(=O)[C@H]([C@@H](C)O)NC(=O)[C@H]([C@H](O)[C@@H](O)c5ccc(O)cc5)NC(=O)[C@@H]5C[C@@H](O)CN5C(=O)[C@H]([C@@H](C)O)NC4=O)cc3)cc2)cc1; system = healthy adult humans, plasma; setting = subcutaneous, 10 mg, single dose, median; endpoint = Vz/F; value = 78.4 L
SMILES = CC1(C)S[C@@H]2[C@H](NC(=O)[C@H](C(=O)O)c3ccsc3)C(=O)N2[C@H]1C(=O)O; system = rat plasma; setting = 2400 ng/mL, three freeze-thaw cycles; how to read = relative to: nominal concentration; endpoint = relative error; value = 1.6%
SMILES = [123I]c1cncc(OC[C@@H]2CCN2)c1; assay = SPECT; system = human, fusiform gyrus; setting = intravenous bolus, 7.35 mCi; how to read = relative to: tissue over plasma; endpoint = tissue/plasma ratio; value = 27.5
SMILES = Cc1cc(C(C#N)c2ccc(Cl)cc2)c(Cl)cc1NC(=O)c1cc(I)cc(I)c1O (stereo not drawn); assay = HPLC, non-compartmental; system = Corriedale lambs, parasitized, plasma; setting = oral, 10 mg/kg; endpoint = elimination half-life; value = 346 h
SMILES = CC(=O)N[C@H](CCCCNC(=O)C(C)F)C(=O)N[C@@H](CS)C(=O)N[C@@H](CS)C(=O)N[C@@H](CCC(=O)O)C(=O)N[C@@H](Cc1c[nH]cn1)C(=O)N[C@H](Cc1ccccc1)C(=O)N[C@@H](CCCNC(=N)N)C(=O)N[C@@H](Cc1c[nH]c2ccccc12)C(=O)N[C@@H](CS)C(=O)N[C@@H](CCCNC(=N)N)C(=O)N1CCC[C@H]1C(=O)N[C@H](C(N)=O)C(C)C (stereo partly drawn) [fluorine-18 labelled]; system = C57BL/6 mice, male, B16-F10 tumour, pancreas; setting = intravenous, 4 h; endpoint = tissue uptake; value = 0.06 ± 0.01 %ID/g
SMILES = C[C@H](NC(=O)[C@@H]1CCCN1C(=O)[C@H](CC(N)=O)NC(=O)[C@H](Cc1c[nH]c2ccccc12)NC(=O)[C@@H](N)CCCNC(=N)N)C(=O)N[C@H](C(=O)NCC(=O)N[C@@H](CCCCN)C(=O)N[C@@H](Cc1c[nH]c2ccccc12)C(=O)N[C@@H](CCC(=O)O)C(=O)O)[C@@H](C)O; assay = circular dichroism; system = phosphate buffer; setting = pH 6.5; endpoint = Tm; value = 61.6 ± 0.1 °C
SMILES = O=C(NCCS)c1cccc(C(=O)NCCS)c1; system = rat, Sprague-Dawley, male, plasma; setting = intravenous, 1 mg/kg; endpoint = volume of distribution at steady state; value = 5.5 L/kg
SMILES = COc1ccc(C[C@@H]2NC(=O)[C@H]([C@@H](C)O)NC(=O)[C@@H]3[C@@H]4CCN3C(=O)[C@@H]3Cc5cn(c6ccc(F)cc56)CCCCCCN(Cc5ccc(cc5)CCNC(=O)[C@]5(C)CCCN5C2=O)C(=O)CCC(=O)N[C@@H](C)C(=O)N[C@H](CNC(=O)CCCCC[N+](C)(C)C)C(=O)N[C@@H](Cc2cccc(c2)CNC(=O)CO4)C(=O)N3)cc1; system = fasted healthy humans, plasma; setting = oral, 100 mg single dose, with 1800 mg Labrasol, geometric mean; endpoint = Vz/F; value = 7040 L
SMILES = CSCC[C@@H]1NC(=O)[C@H](CC(=O)O)NC(=O)CNC(=O)[C@H](CCCNC(=N)N)NC(=O)[C@H](C)NC(=O)[C@H](CCC(=O)O)NC(=O)[C@H](CCCNC(=N)N)NC(=O)[C@@H]2CSSC[C@@H]3NC(=O)[C@H](CO)NC(=O)[C@H]([C@@H](C)O)NC(=O)[C@@H]4CCCN4C(=O)[C@H](C)NC(=O)[C@H](Cc4c[nH]c5ccccc45)NC(=O)[C@H](CC(=O)O)NC(=O)CNC(=O)[C@H](CCCNC(=N)N)NC(=O)CNC(=O)[C@H](CCC(N)=O)NC(=O)[C@@H]4CCCN4C(=O)[C@@H](NC(=O)CNC(=O)C(C)F)CSSC[C@H](NC(=O)CNC(=O)[C@H](C)NC(=O)[C@H](CC(C)C)NC(=O)[C@H](CSSC[C@@H](C(=O)NCC(N)=O)NC(=O)[C@H]([C@@H](C)O)NC(=O)[C@H](CCCNC(=N)N)NC(=O)[C@@H]4CCCN4C1=O)NC(=O)[C@H](CC(=O)O)NC(=O)[C@H](CO)NC(=O)[C@H](CC(=O)O)NC(=O)[C@H](CCC(N)=O)NC(=O)[C@H](CO)NC3=O)C(=O)N[C@@H](C(C)C)C(=O)N2 (stereo partly drawn) [fluorine-18 labelled]; system = nude mice U-87 MG xenograft, stomach; setting = intravenous, 0.5 h; endpoint = tissue uptake; value = 1.81 ± 0.08 %ID/g
SMILES = O=c1[nH]c(Cc2ccccn2)nc2c1cnn2C1CCOCC1; system = healthy men, extensive metabolizers, plasma; setting = oral, 350 mg single dose, tablet, geometric mean; endpoint = AUC(0-inf); value = 7.98 µM·h
SMILES = NC(=O)c1nc(F)c[nH]c1=O; assay = UV-Vis spectrophotometry; system = supercritical CO2; setting = 120 min, 318 K, 24 MPa, 850.10 kg/m^3; endpoint = solubility; value = 1300 µg/mL (≈ 8.29 mM)
SMILES = O=c1[nH]c(=O)[nH]c(=O)[nH]1; system = CD IGS rat, female, non-pregnant, serum; setting = oral, 1000 mg/kg/day, 10 days, with rectangular renal crystals; endpoint = serum concentration; value = > 54 µg/mL
SMILES = CN[C@H](CC(C)C)C(=O)N[C@H]1C(=O)N[C@@H](CC(N)=O)C(=O)N[C@H]2C(=O)N[C@H]3C(=O)N[C@H](C(=O)N[C@H](C(=O)O)c4cc(O)cc(O)c4-c4cc3ccc4O)[C@H](O)c3ccc(c(Cl)c3)Oc3cc2cc(c3O[C@@H]2O[C@H](CO)[C@@H](O)[C@H](O)[C@H]2O[C@H]2C[C@](C)(N)[C@H](O)[C@H](C)O2)Oc2ccc(cc2Cl)[C@H]1O; assay = HPLC-MS/MS; system = Wistar rat, serum; setting = intravenous bolus, 1 mg/kg, 10 to 90 min; endpoint = AUC; value = 1770 ± 417 ng·h/mL
SMILES = Cn1cnc2c(F)c(Nc3ccc(Br)cc3Cl)c(C(=O)NOCCO)cc21; system = human patients; setting = oral, 100 mg once daily, combination therapy, MTD cohort; endpoint = AUC(0-10h); value = 2300 to 7880 ng·h/mL
SMILES = CN1CCC(Nc2ncc3ncnc(Nc4ccc(F)c(Cl)c4)c3n2)CC1; system = guinea pig Hartley male, hepatic S9; setting = 1 µM, pH 7.4, with: without NADPH; endpoint = CLint; value = 50.4 ± 1.13 mL/min/kg
SMILES = CCCCCCCCCCCC[N+](C)(C)CCCCCCCCCCCC; assay = ultrafiltration; system = human serum; endpoint = unbound fraction in blood; value = 0.09
SMILES = Cn1c(N)nc2ncc(-c3ccccc3)cc21; system = human; setting = 4900 ng oral, time not given; how to read = relative to: dose; endpoint = urinary recovery after acid hydrolysis; value = < 3%
SMILES = CCNc1nc(Cl)nc(NCC)n1; assay = LC-MS/MS; system = herbicide solution; setting = 2 h, 23 °C, with: 254 nm UV exposure; endpoint = remaining amount; value = 45.1 ± 13%
SMILES = C[C@H]1C(=O)O[C@@H]2CC[N+]3([O-])CC=C(COC(=O)[C@](C)(O)[C@]1(C)O)[C@H]23 (stereo partly drawn); system = human, whole blood; setting = 1000 ng/mL, 60 min, 37 °C; endpoint = blood-to-plasma ratio; value = 0.709
SMILES = CCc1cccc(CC)c1N(COC)C(=O)CCl; assay = LC-MS/MS; system = herbicide solution; setting = 2 h, 23 °C, with: 365 nm UV exposure; endpoint = remaining amount; value = 0.58 ± 0.01%
SMILES = c1cc2ccc3cccc4ccc(c1)c2c34; assay = HPLC-fluorescence; system = Wistar rat, male, duodenum; setting = oral, 4 mg/kg, 24 h; endpoint = tissue concentration; value = 49.2 ± 14.3 ng/g
SMILES = O=C(O)CN(CCN(CC(=O)O)CC(=O)O)CCN(CC(=O)O)CC(=O)O; system = beagle dog; setting = intravenous, 300 µM, 50% binding threshold; endpoint = time above binding threshold; value = 3.6 h
SMILES = CS(=O)(=O)CCCn1c(Cn2c(=O)n(CC(F)(F)F)c3ccncc32)cc2cc(Cl)ccc21; system = RSV-infected infants; setting = concentration not given, mid-high dose cohort; endpoint = patients with high aPTT; value = 25%
SMILES = CNC(=O)c1ccc(-c2cnn3ccc(C(=O)N(C)c4ccc(Cl)c(C(=O)OC)c4)cc23)cc1; system = beagle dogs, both sexes, plasma; setting = oral, 50 mg/kg/day, day 14, 2-week toxicology study; endpoint = AUC(0-8 h); value = 120 ng·h/mL
SMILES = CC(=O)N[C@H](CCCCN)C(=O)N[C@H](CC(C)C)C(=O)N[C@@H](CN)C(=O)N[C@H](CO)C(=O)N[C@H](CC(C)C)C(=O)N[C@H](CC(C)C)C(=O)N[C@@H](CN)C(=O)N[C@@H](C(=O)N[C@H](CC(C)C)C(=O)N[C@H](CO)C(=O)N[C@@H](CN)C(=O)N[C@H](C)C(=O)N[C@H](C)C(=O)N[C@H](C)C(=O)N[C@H](C)C(=O)N[C@H](C)C(=O)N[C@H](CC(C)C)C(=O)N[C@@H](CN)C(=O)N[C@@H](C(=O)N[C@H](CC(C)C)C(=O)N[C@H](CC(C)C)C(=O)N[C@@H](CN)C(=O)N[C@H](C)C(=O)N[C@H](CC(C)C)C(=O)N[C@H](CO)C(=O)N[C@@H](CN)C(N)=O)[C@H](C)O)[C@H](C)O; system = human erythrocytes; setting = 18 h, pH 7.4, 37 °C, 50% hemolysis; endpoint = HC50; value = 7.2 µg/mL

A few entries again:
SMILES = CC(=O)N[C@H](CCCCN)C(=O)N[C@H](CC(C)C)C(=O)N[C@@H](CN)C(=O)N[C@H](CO)C(=O)N[C@H](CC(C)C)C(=O)N[C@H](CC(C)C)C(=O)N[C@@H](CN)C(=O)N[C@@H](C(=O)N[C@H](CC(C)C)C(=O)N[C@H](CO)C(=O)N[C@@H](CN)C(=O)N[C@H](C)C(=O)N[C@H](C)C(=O)N[C@H](C)C(=O)N[C@H](C)C(=O)N[C@H](C)C(=O)N[C@H](CC(C)C)C(=O)N[C@@H](CN)C(=O)N[C@@H](C(=O)N[C@H](CC(C)C)C(=O)N[C@H](CC(C)C)C(=O)N[C@@H](CN)C(=O)N[C@H](C)C(=O)N[C@H](CC(C)C)C(=O)N[C@H](CO)C(=O)N[C@@H](CN)C(N)=O)[C@H](C)O)[C@H](C)O; system = human erythrocytes; setting = 18 h, pH 7.4, 37 °C, 50% hemolysis; endpoint = HC50; value = 7.2 µg/mL
SMILES = C[C@H](NC(=O)[C@@H]1CCCN1C(=O)[C@H](CC(N)=O)NC(=O)[C@H](Cc1c[nH]c2ccccc12)NC(=O)[C@@H](N)CCCNC(=N)N)C(=O)N[C@H](C(=O)NCC(=O)N[C@@H](CCCCN)C(=O)N[C@@H](Cc1c[nH]c2ccccc12)C(=O)N[C@@H](CCC(=O)O)C(=O)O)[C@@H](C)O; assay = circular dichroism; system = phosphate buffer; setting = pH 6.5; endpoint = Tm; value = 61.6 ± 0.1 °C
